# Measurements of several laboratories.
# Parts stem from different laboratories: compare values within a part only.

# Set 1
# Target: RNA binding protein fox-1 homolog 2, RRM domain, GST-SBP tag (RBFOX2, Homo sapiens, UniProt O43251-10, residues 100-194)
# Technique: RNA Bind-n-Seq
# Form: RNA
# Sample: in vitro
# Tested at: 365 nM
# Notes: natural RNA segment, single round, ends assumed
# Reference: no-protein control
# Reading: higher = stronger binding
# Residues (chain): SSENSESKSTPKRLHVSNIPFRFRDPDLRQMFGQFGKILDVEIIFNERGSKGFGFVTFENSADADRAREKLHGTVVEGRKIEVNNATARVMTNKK
Sequence,RBNS enrichment (R)
GGGAGUUCUACAGUCCGACGAUCUACGUGGCAAUUUUUCAAUGUCAUCUGAAGCCAGCAUUAUCUUCCAAAGAAAUCGAUCUUUUUUUUCUAAAAAAAAAAAAUGCUUUUGCCUUCCCUUCCCUUCCCAUCCGUGGAAUUCUCGGGUGCCAA,0.608
GGGAGUUCUACAGUCCGACGAUCAAAGCCCCCAUCAGAACUGCUGGUACUUGAAUCCUCAGAUACUUUAUAGGAGCCCUUGAAUGAAGCUGUGAAUGGAGAGGUUUUCUCUAUAAACCUAUGUGGUAGCCCCCUGGAAUUCUCGGGUGCCAA,0.745
GGGAGUUCUACAGUCCGACGAUCUGCAGCCCCCGGAGGCCCCGCUGAAACCUGGGCUGCCCUUCCCCCACCCCCACGGCUCUCCUGGUUGAGGAGGGAGGGGCCUGGCUGACCCCUCCAGCUUCAGCCUCCAGUGGAAUUCUCGGGUGCCAA,0.318
GGGAGUUCUACAGUCCGACGAUCGUCCAGGAGAAACCUAAAGACAUAAUACAGUUCACUGCCGAGAAGCUCUCUGUGGGGGAAGUGUCACAGUUGGUGGUGUCCCCUCUGUGUGGUGCAGUGUCUCUCUUUGUUGGAAUUCUCGGGUGCCAA,0.489

# Set 2
# Target: Centromere-binding protein 1, full length, N-terminal tag (CBF1, Saccharomyces cerevisiae, UniProt P17106, residues 1-351)
# Chain of UniProt P17106 (whole entry, looked up): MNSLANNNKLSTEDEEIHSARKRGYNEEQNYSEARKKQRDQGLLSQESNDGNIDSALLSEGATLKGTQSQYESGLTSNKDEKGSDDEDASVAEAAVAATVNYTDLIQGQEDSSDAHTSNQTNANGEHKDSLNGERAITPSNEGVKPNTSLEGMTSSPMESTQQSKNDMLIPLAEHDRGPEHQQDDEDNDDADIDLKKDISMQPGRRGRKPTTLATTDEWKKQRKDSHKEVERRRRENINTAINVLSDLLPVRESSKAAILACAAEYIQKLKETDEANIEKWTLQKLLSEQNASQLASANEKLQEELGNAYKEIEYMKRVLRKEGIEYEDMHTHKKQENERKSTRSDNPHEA
# Technique: protein-binding microarray
# Form: double-stranded DNA, one strand shown
# Sample: in vitro
# Tested at: 0.8 µM
# Notes: whole 60-bp probe, no competitor
# Reading: higher = stronger binding
# Shared flanks, not repeated: … GTCTTGATTCGCTTGACGCTGCTG
Sequence,fluorescence intensity [a.u.]
GAAATATTATCAATTCACGTTTTGCTGCTTATTTAG,590
CTAAAAACTTTTATCCACATGCAGTAAAAATAATTC,689
TGTACGAAGCTATATCACGTTAGTATAGTAGTTAGG,756
GAATATCTTAGATTTTACGTGATATGTTGGATATAG,559
CTAGGAACTAGACCCCACGTCAGCGGGCCTAGGTTC,470
CTATTGGTTAGAACTTTCGTGATAATTTATTTTTTC,552
GAAGATATCCTCTGTCATGCCTCCACTGCCAGGTAG,530

# Set 3
# Target: Sal-like protein 4, full length isoform B (SALL4, Homo sapiens, UniProt Q9UJQ4-2, residues 1-616)
# Technique: universal PBM
# Form: double-stranded DNA, one strand shown
# Sample: in vitro
# Tested at: not given
# Notes: 8-mer, flanks averaged, mean of replicates
# Reading: higher = stronger binding
Sequence,E-score
CGTCAGAC,-0.0743
CCAAGTCC,-0.26
CATACTTA,0.237
TATTGTAA,0.34

# Further values, each from its own experiment
Molecule,target,test,test system,setting,how to read,quantity,value
"PhoQ, residues 284 288 289 292 302 303 TNSAEL","PhoP, residues 12 14 15 18 19 NQGLL (Escherichia coli, UniProt P23836)","Sort-seq, item: YFP reporter",E. coli,"PhoQ-PhoP variant library, with: 10 µM Mg2+","reference: high Mg2+ state, higher = stronger signaling",fold induction,6.92

# Excerpt of the above (set 3):
Sequence,E-score
CATACTTA,0.237
